# Experimental data gathered from unrelated publications.
# A part holds a random share of what one study measured. Substitutions count along the parent as printed.

# Set 1
# Target: CCNA2, cyclin fold, Cln2 fusion (human)
# Technique: yeast growth competition, sequencing
# Medium: yeast
# Notes: strong parent motif
# Relative to: not given
# Direction: higher = stronger binding
# Parent: ASZ1 docking peptide (human); GFGFLLFICKLTF
Variant,normalised enrichment score
GFGFLLFICALTF [K10A],0.952
GFAFLLFICKLTF [G3A],1.54
GFGFLLFICKATF [L11A],1.53
GFGFLLAICKLTF [F7A],1.25
GFGALLFICKLTF [F4A],1.32
GFGFLLFIAKLTF [C9A],1.81

# Set 2
# Target: TAR DNA-binding protein 43, full length, His tag (TARDBP, Homo sapiens, UniProt Q13148, residues 1-414)
# Technique: RNA Bind-n-Seq
# Form: RNA
# Medium: in vitro
# Tested at: 20 nM
# Notes: 6-mer, flanks averaged, single round
# Together with: 150 mM LiCl
# Relative to: input library
# Direction: higher = stronger binding
Oligonucleotide,6-mer enrichment (R)
UCGAUC,0.825
AAAGUC,0.815
UGCCUU,1.12
UCGCGC,0.913
CGCCGG,0.934
UACAGU,0.877
CGUAGC,0.887

# Set 3
# Target: Interferon regulatory factor 7, full length, phosphomimetic (IRF7, Homo sapiens, UniProt Q92985, residues 1-503, S471D/S472D/S475D/S476D/S477D/S483D/S484D/S487D)
# Technique: protein-binding microarray
# Form: double-stranded DNA, one strand shown
# Medium: in vitro
# Tested at: 2200 nM top
# Notes: 60-bp whole probe
# Together with: salmon DNA 0.4 mg/ml
# Relative to: random background probes
# Direction: higher = stronger binding
# Constant ends, left off below: GCCTAGCAC … GTCTTGATTCGCTTGACGCTGCTG
# Construct (chain): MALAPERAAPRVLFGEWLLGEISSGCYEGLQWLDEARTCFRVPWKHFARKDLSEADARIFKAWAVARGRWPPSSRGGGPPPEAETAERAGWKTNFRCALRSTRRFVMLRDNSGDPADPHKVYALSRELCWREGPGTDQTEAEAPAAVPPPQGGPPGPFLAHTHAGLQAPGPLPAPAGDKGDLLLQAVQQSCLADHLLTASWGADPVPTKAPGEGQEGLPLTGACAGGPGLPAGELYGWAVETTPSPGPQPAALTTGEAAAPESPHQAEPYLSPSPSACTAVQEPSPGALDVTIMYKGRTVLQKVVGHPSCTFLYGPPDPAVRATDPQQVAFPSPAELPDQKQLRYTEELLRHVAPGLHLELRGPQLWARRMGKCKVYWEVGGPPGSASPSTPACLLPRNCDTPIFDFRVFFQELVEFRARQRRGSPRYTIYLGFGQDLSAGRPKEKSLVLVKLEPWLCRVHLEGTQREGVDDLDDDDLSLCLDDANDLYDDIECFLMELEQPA
Oligonucleotide,fitted relative affinity
TCATTAATGAAAATTCTAACTGTGCTA,-0.551 z-score
TCACTTTCCTTCTTGAAACTGTGCTAG,5.51 z-score
GACGGATTGGGTTTCGGGACGTGCTAG,1.65 z-score
GACGGACTGGACTATCGCGACGTGCTA,-0.326 z-score
GACGGATTCCTTATCCTGACGTGCTAG,1.34 z-score
TCATGTTTCTCAACCATACTGTGCTAG,2.17 z-score
AAGATTCTAGCCTATAGAAGCGTGCTA,-0.44 z-score
TTAGGTTGCGACACTGGGTTAGTGCTA,-0.262 z-score
TTAGATTACGGGACTGGATTAGTGCTA,-0.262 z-score
TGTTTTTTGGTTTCTGGTTTGTGCTAG,5.63 z-score
GACGGTTTCCTCTCCCTGACGTGCTAG,2.34 z-score
TGAGGTTTCGGTTCCGGTTAGTGCTAG,10.5 z-score

# Mixed results
Molecule,target,assay,test system,setting,scale,measurement,value
"PhoQ, residues 284 288 289 292 302 303 GASLAW","PhoP, residues 12 14 15 18 19 GHCSL (Escherichia coli, UniProt P23836)","Sort-seq, item: YFP reporter",E. coli,"PhoQ-PhoP variant library, together with: 10 µM Mg2+","relative to: high Mg2+ state, higher = stronger signaling",fold induction,4.74

# Repeated from above (set 3):
Oligonucleotide,fitted relative affinity
GACGGATTGGGTTTCGGGACGTGCTAG,1.65 z-score
GACGGACTGGACTATCGCGACGTGCTA,-0.326 z-score
